Results from different studies.
Protocols differ between the studies behind these lines.
CDK19: Cyclin-dependent kinase 19 (CDK19, Homo sapiens, UniProt Q9BWU1)

| Structure (SMILES) | target | assay | conditions | how to read | measurement | result |
| --- | --- | --- | --- | --- | --- | --- |
| COc1c(Cl)cccc1Nc1c(-c2ccncc2C#C[C@@]2(C)CCCN2C(=O)/C=C/CN(C)C)[nH]c2c1C(=O)NCC2 | CDK19 | binding, competition with immobilised ligand | 3 µM | – | remaining binding | 92% |
| CCN1CCN(Cc2ccc(C(=O)Nc3ccc(C)c(NCc4cnc5[nH]ccc5c4OC)c3)cc2C(F)(F)F)CC1 | CDK19 | KINOMEscan | 1 µM | – | remaining binding | 32% |
| CC(=O)N1c2ccc(-c3ccc(CNC(=O)c4cn5cc(-c6cnc(N)nc6)nc(N6CCOCC6)c5n4)cc3)cc2CC[C@@H]1C | CDK19 | KINOMEscan | 10 µM | – | remaining binding | 63% |
| CNC1C[S+]2CC[S+]3CC[S+](C1)[Ru-4]321([N]=C=S)[n]2c3ccc(OC)cc3c3c4c(c5cc(F)c[n+]1c5c32)C(=O)NC4=O (centres unmarked) | CDK19 | KinomeScan | 0.1 µM | baseline: untreated | remaining binding | 74% |
| Cc1cnc2nc1Nc1cccc(c1)COC/C=C/COCc1cc(ccc1OCCN1CCOCC1)N2 | CDK19 | – | concentration not given, gene name CDK11 | – | percent of control | 100% |
| COc1cc(Nc2nc(C)cc(-c3cnn4nc(OC)ccc34)n2)cc(C(F)(F)F)c1 | CDK19 | inhibitor | 1 µM, CDK11 | baseline: control | remaining activity | 91% |
| CN1C[C@@H](c2c[nH]c3cc(Br)ccc23)NC[C@@H]1c1c[nH]c2cc(Br)ccc12 | Cyclin-dependent kinase 19, with cyclin C (CDK19, Homo sapiens, UniProt Q9BWU1) | enzyme activity, inhibitor | 10 µM | – | remaining activity | 102% |
| Cc1ccc(C)c(-c2cc(NC(=O)c3cncc(Br)c3)[nH]n2)c1 | CDK19 | KINOMEscan competition | 10 µM | lower = stronger binding | remaining binding | 29% |
| C=C1CCCCCCCCCC(CO)C1=O (centres unmarked) | CDK19 | cell-free assay, competition with immobilised ligand | 10 µM | – | remaining binding | 100% |
| CN1CCN(Cc2ccc(NC(=O)c3cccc(C#Cc4cnc(N)c5ncccc45)c3)cc2C(F)(F)F)CC1 | CDK19 | enzyme activity | 0.05 µM | – | remaining activity | 26% |
| CNC(=O)C1CCN(c2cc(C)c(F)cc2NC(=O)c2ccc(-c3cc(O)ccc3C)c(C)c2)CC1 | CDK19 | KINOMEscan | 1 µM | baseline: DMSO control | remaining binding | 100% |
| CNS(=O)(=O)Nc1nccc(Cc2c(C)c3ccc(Oc4ncccc4F)cc3oc2=O)c1F | CDK19 | KINOMEscan competition binding | 10 µM | baseline: control | remaining binding | 100% |
| Nc1ncc2c(n1)-c1c([nH]c3ccc(C4=CCOCC4)cc13)CCC2 | CDK19 | scanMAX | 1 µM | – | remaining binding | 88% |
| Cc1ccc(C(=O)Nc2cccc(C(F)(F)F)c2)cc1Nc1cncc(C(N)=O)c1 | CDK19 | KinomeScan | 1 µM | – | remaining binding | 25% |

Excerpt of the above:
| Structure (SMILES) | target | assay | conditions | how to read | measurement | result |
| --- | --- | --- | --- | --- | --- | --- |
| Nc1ncc2c(n1)-c1c([nH]c3ccc(C4=CCOCC4)cc13)CCC2 | CDK19 | scanMAX | 1 µM | – | remaining binding | 88% |
